Results pooled from the literature.
Each line is one published result; not all experiments were run side by side. ± gives the spread as reported.

`Nc1ncc(-c2cc(-c3cnn(CC(F)(F)F)c3)ncc2F)nc1C(=O)NC1CNCC(F)C1` (stereo not drawn) has a remaining binding of 99% (NEK7; KINOMEscan; 1 µM; reference: DMSO control).
`O=C(N/N=C/c1ccc(C[n+]2ccccc2)cc1)c1cncc(C(=O)N/N=C/c2ccc(C[n+]3ccccc3)cc2)n1` gave a ΔTm of 13.6 ± 0.9 °C (telomeric G4 DNA hybrid-2; FRET melting; 1 µM, DNA 0.2 µM, together with: duplex DNA competitor 10 µM).
With `CC(=O)[O-].O.[Cu+2].[O-]c1ccc(Br)cc1C=NCCN1CCOCC1` the inhibition was 33.2% (superoxide scavenging; 120 µM).
The ΔTm of `C[n+]1cc(/C=N/NC(=O)c2cc(C(=O)N/N=C/c3cc4ccccc4[n+](C)c3)ncn2)cc2ccccc21` is reported as 4.2 ± 0.6 °C (telomeric G4 DNA hybrid-2; FRET melting; 1 µM, DNA 0.2 µM).
`C=CC(=O)Nc1cccc(Cn2ncc3cnc(Nc4cnn(CCOC)c4)nc32)c1` — result for “percent of control”: 100% (CAMK4 human; binding, KINOMEscan; 100 nM; lower = stronger binding).
`Cc1ncsc1-c1ccc(C(C)NC(=O)C2CC(O)CN2C(=O)C(NC(=O)CCCCCCCCCCN2CCCC(Nc3ncc(Cl)c(Nc4ccccc4S(=O)(=O)C(C)C)n3)C2)C(C)(C)C)cc1` (stereo not drawn): “log2 fold change” -1.1 (22Rv1; RNA-seq, measured: TRIM38 mRNA; concentration not given; reference: DMSO).
`C=CC(=O)N1[C@@H](c2ccc3c(c2)OCO3)c2[nH]c3ccccc3c2C[C@H]1C(=O)N1CCN(C)CC1`: “log2 fold change” 0.0426 (CCNE1 WT-3xFLAG:CDK2 complex; co-IP TMT proteomics, measured: NUP98; HEK-293T; 20 µM, 6 h; reference: DMSO).
`CNS(=O)(=O)Nc1nccc(Cc2c(C)c3ccc(Oc4ncccc4F)cc3oc2=O)c1F` has an IC50 of > 1000 nM (HCC1937; cell viability; 7 days).
`C[n+]1ccc(/C=N/NC(=O)c2ccc3ccc(C(=O)N/N=C/c4cc[n+](C)c5ccccc45)nc3n2)c2ccccc21` has a ΔTm of 26.3 ± 0.8 °C (telomeric G4 DNA hybrid-2; FRET melting; 1 µM, DNA 0.2 µM).
`CN1CCCNC(=O)c2cccc(c2)C(=O)NCCCN(C)CCCNc2cccc3c2C(=O)c2cccc(c2C3=O)NCCC1`: “log2 fold change” -1.19 (SAS; RNA-Seq, measured: SECISBP2 mRNA; 1 µM, 6 h; reference: untreated cells).
`COC1CN([C@H]2CC[C@H]([C@@]3(C)Oc4c(Cl)cc(C(=O)NCc5c(SC)cc(C)[nH]c5=O)c(C)c4O3)CC2)C1`: “log2 fold change” 0.0839 (RNA-seq, measured: TIMP3 mouse homolog; mouse, HT-1376 xenograft, whole blood; dose not given; reference: vehicle).
`C[n+]1cccc2cc(/C=N/NC(=O)C(=O)N/N=C/c3ccc4c(ccc[n+]4C)c3)ccc21` has a ΔTm of 2.3 ± 0.4 °C (telomeric G4 DNA hybrid-2; FRET melting; 1 µM, DNA 0.2 µM, together with: duplex DNA competitor 10 µM).

Repeated from above:
`Cc1ncsc1-c1ccc(C(C)NC(=O)C2CC(O)CN2C(=O)C(NC(=O)CCCCCCCCCCN2CCCC(Nc3ncc(Cl)c(Nc4ccccc4S(=O)(=O)C(C)C)n3)C2)C(C)(C)C)cc1` (stereo not drawn): “log2 fold change” -1.1 (22Rv1; RNA-seq, measured: TRIM38 mRNA; concentration not given; reference: DMSO).
